Results gathered from unrelated publications.
A part holds a random share of what one study measured. Values joined by “and” are separate records of one study, mostly repeats; a detail may differ.

Sample 1 — host: male CD-1 mouse; route: subcutaneous; dose: dose not given
Structure (SMILES): COc1cc(C(=O)OCCCN2CCCN(CCCOC(=O)c3cc(OC)c(OC)c(OCc4ccc([N+](=O)[O-])cc4)c3)CC2)cc(OC)c1OC
| test system | conditions | tissue concentration |
| --- | --- | --- |
| trigeminal ganglion | 8 h | 34.3 ng/mL |
| dorsal root ganglia | 1.5 h | 269 ng/mL |
| dorsal root ganglia | 24 h | 4.25 ng/mL |
| trigeminal ganglion | 0.5 h | 77.7 ng/mL |

Sample 2 — organism: Staphylococcus aureus; strain: USA300; tested at: 2 x MIC
Compound: CCCCC[C@@H]1CC(=O)N[C@@H](C(C)C)C(=O)N[C@H](CCCNC(=N)N)C(=O)N[C@@H](C(C)C)C(=O)NCC(=O)N2CCC[C@H]2C(=O)N[C@@H](CC(C)C)C(=O)N[C@H](CCCNC(=N)N)C(=O)N[C@@H](CCC(=O)O)C(=O)N[C@H](Cc2ccc(O)cc2)C(=O)N[C@H](Cc2c[nH]c3ccccc23)C(=O)NCCCC(=O)O1
| conditions | viable cells |
| --- | --- |
| 180 min | 700 CFU/mL and 500 CFU/mL and 800 CFU/mL |
| 15 min | 3700 CFU/mL and 4000 CFU/mL and 4700 CFU/mL |
| 0 min | 4.1e+08 CFU/mL and 4.7e+08 CFU/mL and 3.9e+08 CFU/mL |
| 120 min | 1000 CFU/mL and 800 CFU/mL |

Sample 3 — read-out: binding; technique: HTRF
Compound: Cc1ccc(O)c(C)c1-c1cnc2[nH]c(-c3cnc(N4CCC(CN5CCN(c6ccc(C(=O)NC7CCC(=O)NC7=O)c(F)c6)CC5)CC4)nc3)cc2c1C#N (racemic)
Target: Membrane-associated tyrosine- and threonine-specific cdc2-inhibitory kinase (PKMYT1, Homo sapiens, UniProt Q99640)
Sequence of UniProt Q99640 (whole entry, looked up): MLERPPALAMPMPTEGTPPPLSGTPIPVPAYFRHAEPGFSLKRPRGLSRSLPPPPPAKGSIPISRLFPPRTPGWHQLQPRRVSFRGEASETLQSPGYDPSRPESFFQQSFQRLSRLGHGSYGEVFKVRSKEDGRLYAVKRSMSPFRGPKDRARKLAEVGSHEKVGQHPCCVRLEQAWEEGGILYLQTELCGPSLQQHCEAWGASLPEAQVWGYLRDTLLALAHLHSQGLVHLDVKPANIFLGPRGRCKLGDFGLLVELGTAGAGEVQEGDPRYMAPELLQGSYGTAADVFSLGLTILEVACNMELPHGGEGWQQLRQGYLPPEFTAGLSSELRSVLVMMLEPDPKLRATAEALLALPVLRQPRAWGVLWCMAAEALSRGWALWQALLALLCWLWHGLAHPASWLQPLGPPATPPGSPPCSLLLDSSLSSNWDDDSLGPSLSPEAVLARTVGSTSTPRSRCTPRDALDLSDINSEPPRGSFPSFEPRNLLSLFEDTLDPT
| conditions | inhibition |
| --- | --- |
| 111.11 nM | 98.2% and 98.3% |
| 1000 nM | 99% and 99.7% |
| 1.37 nM | 7.9% and 10.6% |

Sample 4 — action: degrader; technique: HiBiT; cells: HEK293
SMILES: Cn1cc(-c2cccc(CN3CCC4(CC3)COc3c4ccc4c3CN([C@@H]3CCC(=O)NC3=O)C4=O)c2)cn1
Target: CRBN/Zinc finger protein Helios (Homo sapiens, UniProt Q96SW2+Q9UKS7)
Sequence of UniProt Q96SW2 (whole entry, looked up): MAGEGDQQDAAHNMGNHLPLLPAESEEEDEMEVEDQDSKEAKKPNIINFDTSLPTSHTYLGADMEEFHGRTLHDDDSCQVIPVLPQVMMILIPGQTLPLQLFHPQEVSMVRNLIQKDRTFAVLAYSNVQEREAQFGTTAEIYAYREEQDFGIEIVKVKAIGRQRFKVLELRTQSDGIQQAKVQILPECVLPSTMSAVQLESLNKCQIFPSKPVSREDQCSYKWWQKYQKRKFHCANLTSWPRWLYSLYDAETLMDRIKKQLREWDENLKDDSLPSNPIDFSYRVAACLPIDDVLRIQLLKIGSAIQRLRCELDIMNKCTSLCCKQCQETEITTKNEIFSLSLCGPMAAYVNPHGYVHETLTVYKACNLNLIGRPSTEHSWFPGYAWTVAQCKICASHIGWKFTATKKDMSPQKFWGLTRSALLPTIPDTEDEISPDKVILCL
Sequence of UniProt Q9UKS7 (whole entry, looked up): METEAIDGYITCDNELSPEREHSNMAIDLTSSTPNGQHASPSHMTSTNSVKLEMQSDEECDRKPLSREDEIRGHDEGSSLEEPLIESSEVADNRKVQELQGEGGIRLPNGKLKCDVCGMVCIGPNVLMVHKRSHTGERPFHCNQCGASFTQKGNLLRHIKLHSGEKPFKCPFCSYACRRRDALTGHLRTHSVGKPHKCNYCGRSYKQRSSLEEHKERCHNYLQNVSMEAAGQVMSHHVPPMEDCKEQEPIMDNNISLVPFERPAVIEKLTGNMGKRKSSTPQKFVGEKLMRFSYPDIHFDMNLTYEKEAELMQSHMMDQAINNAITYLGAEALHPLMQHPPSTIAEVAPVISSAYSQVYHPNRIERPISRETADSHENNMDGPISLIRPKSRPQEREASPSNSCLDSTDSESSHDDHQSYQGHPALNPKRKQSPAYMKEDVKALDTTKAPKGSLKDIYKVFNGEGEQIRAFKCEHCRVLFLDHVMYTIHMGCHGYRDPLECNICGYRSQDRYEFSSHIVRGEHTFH
| conditions | protein remaining |
| --- | --- |
| 37.04 nM | 19.8% and 21.4% |
| 0.01694 nM | 91.7% and 103% |
| 0.4572 nM | 89.6% and 103% |
| 12.35 nM | 35.9% and 33.6% |
